Measurements pooled from the literature.
Lines come from different studies, so protocols differ.

O=C(Nc1ccc(OC(F)(F)Cl)cc1)c1cnc(N2CC[C@@H](O)C2)c(-c2ccn[nH]2)c1 — patients with event (measured: Lipase increase, any grade; human patients, dose-finding study; oral, sample C of sample B patients): 47.5%
CNC(=O)c1ccc(-c2cnc3ncc(Cc4ccc5ncccc5c4)n3n2)cc1F — patients with adverse event (measured: blood creatinine increased; human, expansion cohort, other tumours; oral, 600 mg twice daily (RP2D), all grades, any causality, CTCAE v4.0): 11%
Cn1cnc2ccc(Nc3c(F)ccc(NS(=O)(=O)N4CC(F)C4)c3Cl)c(Cl)c2c1=O — patients with fatigue (measured: fatigue grade ≥3; human patients; dose not given, monotherapy trial; baseline: patients): 0%
CNC(=O)c1cc(Oc2ccc(NC(=O)Nc3cc(C(C)(C)C)nn3-c3ccc4ncccc4c3)c(F)c2)ccn1 — patients with nervous system disorder AE (measured: worst grade 3; human; oral, dose not given, cycles 1 and 2, Medium AUC(0-4 h) subgroup): 7%
O=C(NO)c1ccc(CN(c2cnccn2)c2cnccn2)cc1 — patients with adverse event (measured: urinary tract infection; human; oral, dose not given, all dose cohorts, sample B patients): 20%
CCOc1c([C@H](C)n2nc(C)c3c(N)ncnc32)cc(Cl)c(F)c1[C@@H]1CNC(=O)C1 — patients with ΔQTcF 30-60 ms (human B-cell malignancy patients; oral, all doses): 8.7%
COc1cc2nccc(Oc3ccc(NC(=O)c4cc5c(n(-c6ccccc6)c4=O)CCCC5=O)nc3)c2cc1OC — patients with Klebsiella bacteraemia (human, relapsed/refractory AML; oral, dose not given, grade ≥3, any causality, all doses): 10%
Cc1ccc(C(=O)N(CCCN)C(c2nc3snc(C)c3c(=O)n2Cc2ccccc2)C(C)C)cc1 (stereo not shown) — patients with CTCAE grade ≥3 events (human patients; intravenous, 7 mg/day): 50%
CCn1cc(C(=O)N2CCOCC2)c(=O)c2cc(NC3Cc4ccccc4C3)cnc21 — patients with adverse event (human, GAD, PTSD or social anxiety disorder; dose not given, TEAE Nausea, pooled phase trials): 6%
CNCc1ccc(-c2[nH]c3cc(F)cc4c3c2CCNC4=O)cc1 — patients with adverse event (measured: Vomiting; human patients; oral, 600 mg twice daily, grade 3): 3.8%

A few entries again:
O=C(NO)c1ccc(CN(c2cnccn2)c2cnccn2)cc1 — patients with adverse event (measured: urinary tract infection; human; oral, dose not given, all dose cohorts, sample B patients): 20%
CCOc1c([C@H](C)n2nc(C)c3c(N)ncnc32)cc(Cl)c(F)c1[C@@H]1CNC(=O)C1 — patients with ΔQTcF 30-60 ms (human B-cell malignancy patients; oral, all doses): 8.7%
